Assay results from different studies.
Lines come from different studies, so protocols differ. ± marks the error that the study gave.

Structure (SMILES)	test system	setting	AUC
CCCSc1nc(N[C@@H]2C[C@H]2c2ccc(F)c(F)c2)c2nnn([C@@H]3C[C@H](OCCO)[C@@H](O)[C@H]3O)c2n1	female Wistar Han rats, plasma	oral, 60 mg/kg/day, week 52, carcinogenicity study	163 µM·h
CC#C[C@]1(O)CC[C@H]2[C@@H]3CCC4=CC(=O)CCC4=C3[C@@H](c3ccc(N(C)C)cc3)C[C@@]21C	male cynomolgus monkey, plasma	oral, 50 mg/kg single dose, added: ritonavir 30 mg/kg	2650 ng·h/mL
CN1CCN(c2ccc(Nc3ncc4cc(C#N)c(=O)n(C5CCCC5)c4n3)cc2)CC1	NIH Swiss nude mice, intracerebral U87 tumour, plasma	intravenous, 25 mg/kg, added: gefitinib 200 mg/kg oral 1 h before	6350 ng·h/mL
CCCCCCCCCCCCCCCCCCOP(=O)([O-])OC1CC[N+](C)(C)CC1	rhesus monkey, male, plasma	oral, 7 mg/kg, single dose, median of 3	3150 µM·h
CC(C)=CCC[C@](C)(O[C@@H]1O[C@H](CO)[C@@H](O)[C@H](O)[C@H]1O)[C@H]1CC[C@]2(C)[C@@H]1[C@H](O)C[C@@H]1[C@@]3(C)CC[C@H](O[C@@H]4O[C@H](CO)[C@@H](O)[C@H](O)[C@H]4O[C@@H]4O[C@H](CO)[C@@H](O)[C@H](O)[C@H]4O)C(C)(C)[C@@H]3CC[C@]12C	Sprague-Dawley rat, plasma	oral, 2000 mg/kg ginseng extract, diet with NUTRIOSE 10% for 2 weeks	15200 ± 6090 ng·h/mL
Cc1cc(-c2cc(OC(=O)c3ccccc3)ccc2Cl)cc2nnc(Nc3ccc(OCCN4CCCC4)cc3)nc12	C57BL/6 mice, retina	topical ocular, 1 %, 0 to 24 h	1.07 µM·h
OCCc1ccc(O)cc1	C57BL/6J obese male mice, brain	oral, 200 mg/kg, 0 to 12 h	6.35 ± 0.68 nmol·min/g
CCCCOC(=O)CCCCCCCCCCCNC(=O)NC12CC3CC(CC(C3)C1)C2	dog, plasma	oral, 0.3 mg/kg	not detected
CC(C)=CCC[C@](C)(O[C@@H]1O[C@H](CO)[C@@H](O)[C@H](O)[C@H]1O)[C@H]1CC[C@]2(C)[C@@H]1[C@H](O)C[C@@H]1[C@@]3(C)CC[C@H](O[C@@H]4O[C@H](CO)[C@@H](O)[C@H](O)[C@H]4O[C@@H]4O[C@H](CO)[C@@H](O)[C@H](O)[C@H]4O)C(C)(C)[C@@H]3CC[C@]12C	Sprague-Dawley rat, plasma	oral, 100 mg/kg of parent ginsenoside, 0 to 48 h, control group, no prebiotic	849 ± 141 ng·h/mL
Cn1ncnc1[C@H]1c2n[nH]c(=O)c3cc(F)cc(c23)N[C@@H]1c1ccc(F)cc1	FVB mice, female, wild type, plasma	oral, 0.5 mg/kg, 0 to 4 h, no novobiocin pretreatment	702 ng·h/mL
CC(C)=CCC[C@](C)(O[C@@H]1O[C@H](CO[C@@H]2O[C@H](CO)[C@@H](O)[C@H](O)[C@H]2O)[C@@H](O)[C@H](O)[C@H]1O)[C@H]1CC[C@]2(C)[C@@H]1[C@H](O)C[C@@H]1[C@@]3(C)CC[C@H](O[C@@H]4O[C@H](CO)[C@@H](O)[C@H](O)[C@H]4O[C@@H]4O[C@H](CO)[C@@H](O)[C@H](O)[C@H]4O)C(C)(C)[C@@H]3CC[C@]12C	Sprague Dawley rats, plasma	oral, 100 mg/kg, 0 to 48 h, control group sterile water	13700 ± 1080 ng·h/mL
Fc1ccc(Nc2n[nH]c3cccnc23)cc1Cl	Sprague-Dawley rat, male, plasma	oral, 15 mg/kg, 1 times daily, day 4	200 µM·h

Repeated from above:
Structure (SMILES)	test system	setting	AUC
Cn1ncnc1[C@H]1c2n[nH]c(=O)c3cc(F)cc(c23)N[C@@H]1c1ccc(F)cc1	FVB mice, female, wild type, plasma	oral, 0.5 mg/kg, 0 to 4 h, no novobiocin pretreatment	702 ng·h/mL
